# Measurements pooled from the literature.
# Each line is one published result; not all experiments were run side by side. “And” joins repeats or separate records; there may be more than shown.
# T1: PDHA1/PDHB 30-390 E234Q on β (Homo sapiens); chain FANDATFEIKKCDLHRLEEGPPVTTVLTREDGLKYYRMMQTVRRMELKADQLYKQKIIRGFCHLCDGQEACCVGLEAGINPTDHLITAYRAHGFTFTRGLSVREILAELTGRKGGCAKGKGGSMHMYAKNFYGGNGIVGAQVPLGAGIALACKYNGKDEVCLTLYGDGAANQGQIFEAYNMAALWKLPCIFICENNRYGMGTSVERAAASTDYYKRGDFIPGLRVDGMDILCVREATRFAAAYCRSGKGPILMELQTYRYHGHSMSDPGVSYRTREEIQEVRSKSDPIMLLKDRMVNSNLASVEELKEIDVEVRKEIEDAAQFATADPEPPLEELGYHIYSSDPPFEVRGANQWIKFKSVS; chain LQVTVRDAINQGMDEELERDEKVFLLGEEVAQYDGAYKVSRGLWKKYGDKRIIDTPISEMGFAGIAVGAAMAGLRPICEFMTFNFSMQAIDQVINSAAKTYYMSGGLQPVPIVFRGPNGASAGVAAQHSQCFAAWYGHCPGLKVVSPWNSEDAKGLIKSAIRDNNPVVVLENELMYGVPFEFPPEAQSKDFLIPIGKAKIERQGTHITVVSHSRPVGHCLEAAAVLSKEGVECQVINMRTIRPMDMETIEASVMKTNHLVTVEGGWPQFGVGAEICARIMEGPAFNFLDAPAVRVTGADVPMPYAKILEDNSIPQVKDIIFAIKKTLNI
# B1: UGT1A9 (Homo sapiens, UniProt O60656); chain GKLLVVPMDGSHWFTMRSVVEKLILRGHEVVVVMPEVSWQLGRSLNCTVKTYSTSYTLEDLDREFKAFAHAQWKAQVRSIYSLLMGSYNDIFDLFFSNCRSLFKDKKLVEYLKESSFDAVFLDPFDNCGLIVAKYFSLPSVVFARGILCHYLEEGAQCPAPLSYVPRILLGFSDAMTFKERVRNHIMHLEEHLLCHRFFKNALEIASEILQTPVTEYDLYSHTSIWLLRTDFVLDYPKPVMPNMIFIGGINCHQGKPLPMEFEAYINASGEHGIVVFSLGSMVSEIPEKKAMAIADALGKIPQTVLWRYTGTRPSNLANNTILVKWLPQNDLLGHPMTRAFITHAGSHGVYESICNGVPMVMMPLFGDQMDNAKRMETKGAGVTLNVLEMTSEDLENALKAVINDKSYKENIMRLSSLHKDRPVEPLDLAVFWVEFVMRHKGAPHLRPAAHDLTWYQYHSLDVIGFLLAVVLTVAFITFKCCAYGYRKCLGKKGRVKKAHKSKTH
# B2: kaiB (Synechococcus elongatus, UniProt Q79PF5); chain MSPRKTYILKLYVAGNTPNSVRALKTLKNILEVEFQGVYALKVIDVLKNPQLAEEDKILATPTLAKVLPLPVRRIIGDLSDREKVLIGLDLLYGELQDSDDF
# B3: SNW1 59-129 (Homo sapiens, UniProt Q13573); sequence looked up; chain GDGGAFPEIHVAQYPLDMGRKKKMSNALAIQVDSEGKIKYDAIARQGQSKDKVIYSKYTDLVPKEVMNADD
# B4: BNI5 C266F/C375S (Saccharomyces cerevisiae, UniProt P53890); AF647 label at C144; sequence looked up; chain MGLDQDKIKKRLSQIEIDINQMNQMIDENLQLVEPAEDEAVEDNVKDTGVVDAVKVAETALFSGNDGADSNPGDSAQVEEHKTAQVHIPTENEANKSTDDPSQLSVTQPFIAKEQITHTAIAIGDSYNSFVANSAGNEKAKDSCTENKEDGTVNIDQNRGEADVEIIENNDDEWEDEKSDVEEGRVDKGTEENSEIESFKSPMPQNNTLGGENKLDAELVLDKFSSANKDLDIQPQTIVVGGDNEYNHESSRLADQTPHDDNSENFPNRSGGSTPLDSQTKIFIPKKNSKEDGTNINHFNSDGDGQKKMANFETRRPTNPFRVISVSSNSNSRNGSRKSSLNKYDSPVSSPITSASELGSIAKLEKRHDYLSMKSIKLQKEIDYLNKMNAQGSLSMEDGKRLHRAVVKLQEYLDKKTKEKYEVGVLLSRHLRKQIDRGENGQFWIGTK
# B5: mel-26 (Caenorhabditis elegans, UniProt Q94420); sequence looked up; chain MEPRIDGGVFIGGIGNSGNEMCSNGVPALGVSSQTEIKVEKVQHTWTVKNFSHCYQEYLENFVYLQRGDEQLTWSIKIYPKGNGENNKDFVFLCLNRVINNNVKAGKIGFKSQFKLRTAENKDIEMRIHPNPSHSDYVSYIKRDVLFPQIMPRDMIIVNVEIDVAVETITTTNEPIQFEPTNSEQQLIEDYQRLFSQELLCDFAINVNGKIIRAHKAVLAARSPVFNAMLTHQDTDEAKSSMMYINDMDYDVIYEMVYYIYCGRCNKDITDMATALLIAADKYRLEELKSHCEKYLVENINIENACSLLIIGDLYSAPKLRKRAVTYILARPKNVTGTPGWEDILKGHPNLITDIFSQIDRQSSTGATSSVSNLPGVPMDIPGITGNIVPPPSGL
# B6: PHKB (Homo sapiens, UniProt Q93100); pS12/pS27/pS701; sequence looked up; chain MAGAAGLTAEVSWKVLERRARTKRSGSVYEPLKSINLPRPDNETLWDKLDHYYRIVKSTLLLYQSPTTGLFPTKTCGGDQKAKIQDSLYCAAGAWALALAYRRIDDDKGRTHELEHSAIKCMRGILYCYMRQADKVQQFKQDPRPTTCLHSVFNVHTGDELLSYEEYGHLQINAVSLYLLYLVEMISSGLQIIYNTDEVSFIQNLVFCVERVYRVPDFGVWERGSKYNNGSTELHSSSVGLAKAALEAINGFNLFGNQGCSWSVIFVDLDAHNRNRQTLCSLLPRESRSHNTDAALLPCISYPAFALDDEVLFSQTLDKVVRKLKGKYGFKRFLRDGYRTSLEDPNRCYYKPAEIKLFDGIECEFPIFFLYMMIDGVFRGNPKQVQEYQDLLTPVLHHTTEGYPVVPKYYYVPADFVEYEKNNPGSQKRFPSNCGRDGKLFLWGQALYIIAKLLADELISPKDIDPVQRYVPLKDQRNVSMRFSNQGPLENDLVVHVALIAESQRLQVFLNTYGIQTQTPQQVEPIQIWPQQELVKAYLQLGINEKLGLSGRPDRPIGCLGTSKIYRILGKTVVCYPIIFDLSDFYMSQDVFLLIDDIKNALQFIKQYWKMHGRPLFLVLIREDNIRGSRFNPILDMLAALKKGIIGGVKVHVDRLQTLISGAVVEQLDFLRISDTEELPEFKSFEELEPPKHSKVKRQSSTPSAPELGQQPDVNISEWKDKPTHEILQKLNDCSCLASQAILLGILLKREGPNFITKEGTVSDHIERVYRRAGSQKLWLAVRYGAAFTQKFSSSIAPHITTFLVHGKQVTLGAFGHEEEVISNPLSPRVIQNIIYYKCNTHDEREAVIQQELVIHIGWIISNNPELFSGMLKIRIGWIIHAMEYELQIRGGDKPALDLYQLSPSEVKQLLLDILQPQQNGRCWLNRRQIDGSLNRTPTGFYDRVWQILERTPNGIIVAGKHLPQQPTLSDMTMYEMNFSLLVEDTLGNIDQPQYRQIVVELLMVVSIVLERNPELEFQDKVDLDRLVKEAFNEFQKDQSRLKEIEKQDDMTSFYNTPPLGKRGTCSYLTKAVMNLLLEGEVKPNNDDPCLIS
# B7: Osm 24-206 (Mus musculus, UniProt P53347); chain ANRGCSNSSSQLLSQLQNQANLTGNTESLLEPYIRLQNLNTPDLRAACTQHSVAFPSEDTLRQLSKPHFLSTVYTTLDRVLYQLDALRQKFLKTPAFPKLDSARHNILGIRNNVFCMARLLNHSLEIPEPTQTDSGASRSTTTPDVFNTKIGSCGFLWGYHRFMGSVGRVFREWDDGSTRSRR
# B8: DLAT 214-416 (Homo sapiens, UniProt P10515); sequence looked up; chain SYPPHMQVLLPALSPTMTMGTVQRWEKKVGEKLSEGDLLAEIETDKATIGFEVQEEGYLAKILVPEGTRDVPLGTPLCIIVEKEADISAFADYRPTEVTDLKPQVPPPTPPPVAAVPPTPQPLAPTPSAPCPATPAGPKGRVFVSPLAKKLAVEKGIDLTQVKGTGPDGRITKKDIDSFVPSKVAPAPAAVVPPTGPGMAPVP
# Sequence of UniProt Q9Y3C6 (whole entry, looked up): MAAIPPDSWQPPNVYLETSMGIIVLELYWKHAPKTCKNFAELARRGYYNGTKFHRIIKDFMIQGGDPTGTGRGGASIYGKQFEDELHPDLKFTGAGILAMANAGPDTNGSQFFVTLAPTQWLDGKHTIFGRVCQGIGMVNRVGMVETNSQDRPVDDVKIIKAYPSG
# Sequence of UniProt Q00560 (whole entry, looked up): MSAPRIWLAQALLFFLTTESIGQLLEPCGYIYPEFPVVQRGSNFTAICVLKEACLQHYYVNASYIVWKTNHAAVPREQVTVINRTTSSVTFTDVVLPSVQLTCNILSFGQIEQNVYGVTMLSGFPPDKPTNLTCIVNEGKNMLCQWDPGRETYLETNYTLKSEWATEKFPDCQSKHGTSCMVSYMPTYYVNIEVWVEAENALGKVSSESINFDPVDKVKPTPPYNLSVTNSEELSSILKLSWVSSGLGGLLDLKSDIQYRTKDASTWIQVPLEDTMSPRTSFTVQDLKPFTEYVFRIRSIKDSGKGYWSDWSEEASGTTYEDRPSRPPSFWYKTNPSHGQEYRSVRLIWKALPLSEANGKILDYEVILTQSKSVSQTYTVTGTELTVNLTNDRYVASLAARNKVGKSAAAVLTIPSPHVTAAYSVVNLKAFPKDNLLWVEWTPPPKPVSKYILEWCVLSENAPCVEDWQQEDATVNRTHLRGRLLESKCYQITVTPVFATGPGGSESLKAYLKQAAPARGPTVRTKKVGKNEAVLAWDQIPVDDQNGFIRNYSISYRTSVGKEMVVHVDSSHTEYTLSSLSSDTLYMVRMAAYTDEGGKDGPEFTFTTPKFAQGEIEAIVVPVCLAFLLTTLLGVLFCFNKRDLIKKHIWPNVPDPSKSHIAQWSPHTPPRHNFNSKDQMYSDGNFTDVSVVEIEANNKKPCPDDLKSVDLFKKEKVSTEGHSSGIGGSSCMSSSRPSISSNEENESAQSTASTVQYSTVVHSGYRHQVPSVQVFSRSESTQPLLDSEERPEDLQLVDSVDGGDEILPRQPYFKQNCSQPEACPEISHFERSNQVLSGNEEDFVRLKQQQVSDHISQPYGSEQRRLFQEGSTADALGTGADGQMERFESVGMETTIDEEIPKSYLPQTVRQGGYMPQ
# Sequence of UniProt P46020 (whole entry, looked up): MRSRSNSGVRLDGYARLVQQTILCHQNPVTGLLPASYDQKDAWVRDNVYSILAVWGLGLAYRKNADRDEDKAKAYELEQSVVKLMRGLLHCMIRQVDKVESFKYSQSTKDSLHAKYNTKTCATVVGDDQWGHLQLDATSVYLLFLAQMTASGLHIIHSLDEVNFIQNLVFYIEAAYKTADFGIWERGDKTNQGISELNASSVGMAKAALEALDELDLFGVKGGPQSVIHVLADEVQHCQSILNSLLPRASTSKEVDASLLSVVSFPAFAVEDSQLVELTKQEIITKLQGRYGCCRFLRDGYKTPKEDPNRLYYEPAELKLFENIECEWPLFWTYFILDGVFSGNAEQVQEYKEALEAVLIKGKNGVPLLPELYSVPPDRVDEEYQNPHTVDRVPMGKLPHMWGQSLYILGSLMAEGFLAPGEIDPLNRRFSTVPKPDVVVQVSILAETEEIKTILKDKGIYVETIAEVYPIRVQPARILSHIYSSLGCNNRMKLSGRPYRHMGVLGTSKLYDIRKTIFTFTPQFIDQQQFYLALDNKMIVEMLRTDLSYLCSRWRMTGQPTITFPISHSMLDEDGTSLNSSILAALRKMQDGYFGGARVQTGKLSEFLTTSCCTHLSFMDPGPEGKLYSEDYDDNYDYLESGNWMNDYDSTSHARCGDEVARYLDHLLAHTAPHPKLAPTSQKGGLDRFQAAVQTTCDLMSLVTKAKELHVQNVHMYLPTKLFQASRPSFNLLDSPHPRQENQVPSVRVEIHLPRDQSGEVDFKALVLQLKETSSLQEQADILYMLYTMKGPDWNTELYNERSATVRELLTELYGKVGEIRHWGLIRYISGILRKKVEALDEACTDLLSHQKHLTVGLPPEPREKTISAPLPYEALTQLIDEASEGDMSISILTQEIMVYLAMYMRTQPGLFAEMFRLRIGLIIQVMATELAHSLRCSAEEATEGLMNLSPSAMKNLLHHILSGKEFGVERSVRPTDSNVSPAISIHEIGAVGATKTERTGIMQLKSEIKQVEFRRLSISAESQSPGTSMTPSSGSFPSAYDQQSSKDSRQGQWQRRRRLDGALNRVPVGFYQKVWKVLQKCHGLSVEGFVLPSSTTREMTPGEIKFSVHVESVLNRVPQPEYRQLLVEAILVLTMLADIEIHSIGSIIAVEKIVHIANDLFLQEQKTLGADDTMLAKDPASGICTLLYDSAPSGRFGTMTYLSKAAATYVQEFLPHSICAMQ
# Sequence of UniProt Q79PF4 (whole entry, unmodified, looked up): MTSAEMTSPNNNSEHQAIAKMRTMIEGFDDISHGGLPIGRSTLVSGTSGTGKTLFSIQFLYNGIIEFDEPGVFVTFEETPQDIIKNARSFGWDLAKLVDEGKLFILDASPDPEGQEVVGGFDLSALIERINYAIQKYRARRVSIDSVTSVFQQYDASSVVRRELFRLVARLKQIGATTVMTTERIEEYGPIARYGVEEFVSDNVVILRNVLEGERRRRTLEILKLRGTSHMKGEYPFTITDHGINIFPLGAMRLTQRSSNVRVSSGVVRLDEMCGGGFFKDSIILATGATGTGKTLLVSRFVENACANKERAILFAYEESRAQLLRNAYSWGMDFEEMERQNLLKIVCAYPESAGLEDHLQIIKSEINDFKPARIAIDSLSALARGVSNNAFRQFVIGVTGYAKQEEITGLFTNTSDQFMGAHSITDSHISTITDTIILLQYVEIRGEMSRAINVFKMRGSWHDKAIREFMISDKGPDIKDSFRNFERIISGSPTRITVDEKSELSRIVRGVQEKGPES
Sequence,tested on,assay,system,conditions,measurement,result
"RRKAFLHWYTGEGMDEMEFTEAESNMNDLVSEYQQYQDATADEQGEFEEEEGEDEA (TUBB2B 390-445 (Homo sapiens, UniProt Q9BVA1); sequence looked up)","MYO10 MyTH4-FERM 1486-2058 del1872-1891 (Homo sapiens, UniProt Q9HD67)",pull-down,peptide,,binding,binds
B1 (UGT1A9),O=c1c(O)c(-c2ccc(O)c(O)c2)oc2cc(O)ccc12,steady-state kinetics,,"pH 7.4, 37 °C",Vmax,0.00162 µmol/min/mg and 0.00262 µmol/min/mg
B2 (kaiB),"kaiC S431T/T432V (Synechococcus elongatus, UniProt Q79PF4)",native gel,,,binding,binds
B3 (SNW1 59-129),"PPIL1 (Homo sapiens, UniProt Q9Y3C6)",SPR,,,binding,binds
B4 (BNI5 C266F/C375S),Cdc11/Cdc12/Cdc3/Cdc10 hetero-octamer (Saccharomyces cerevisiae),negative-stain EM,,"KCl 45 mM, together with: septins 50 nM",binding,binds
B5 (mel-26),"mei-1/mei-2, phosphorylated by MBK-2 (Caenorhabditis elegans)",dot blot,,"4 °C, native",binding,binds
B6 (PHKB),"PHKA1, phosphorylated incl. pS1018 (Homo sapiens, UniProt P46020)",cryo-EM,,,binding,binds
B7 (Osm 24-206),"Il6st ectodomain 23-617 (Mus musculus, UniProt Q00560)",cryo-EM,,,binding,binds
B8 (DLAT 214-416),"T1, PDHA1/PDHB 30-390 E234Q on β (Homo sapiens)",SPR,,,binding,binds
"MGSNKSKPKDASQRRRSLLPETG (SRC 1-18 (Homo sapiens, UniProt P12931))","SRC fragment, N-terminal TAMRA label (Homo sapiens)",pull-down,,,binding,binds

# Some of these lines once more:
Sequence,tested on,assay,system,conditions,measurement,result
"RRKAFLHWYTGEGMDEMEFTEAESNMNDLVSEYQQYQDATADEQGEFEEEEGEDEA (TUBB2B 390-445 (Homo sapiens, UniProt Q9BVA1); sequence looked up)","MYO10 MyTH4-FERM 1486-2058 del1872-1891 (Homo sapiens, UniProt Q9HD67)",pull-down,peptide,,binding,binds
